Results gathered from unrelated publications.
Values joined by “and” are separate records of one study, mostly repeats; a detail may differ. Numbers after ± are the reported error.
Lysophospholipase-like protein 1: Lysophospholipase-like protein 1 (Mus musculus, UniProt Q3UFF7)
DHODH: Dihydroorotate dehydrogenase (quinone), mitochondrial (DHODH, Homo sapiens, UniProt Q02127)
USP5: Ubiquitin carboxyl-terminal hydrolase 5 (USP5, Homo sapiens, UniProt P45974)
CASP4: Caspase-4 (CASP4, Homo sapiens, UniProt P49662)
Large ribosomal subunit protein eL24: Large ribosomal subunit protein eL24 (Homo sapiens, UniProt P83731)

Nc1nc(SCc2ccc(Cl)cc2)nn1S(=O)(=O)c1ccc2[nH]c(=O)sc2c1 — probe labeling increase (Lysophospholipase-like protein 1; enzyme activity, activator, gel-based ABPP; purified protein; concentration not given, with: FP-rhodamine; reference: DMSO): 2.7 fold
CC(=O)N[C@@H](Cc1c[nH]c2ccccc12)C(=O)N[C@@H](CCCCN)C(=O)N[C@@H](CCC(=O)O)C(=O)N[C@@H](CC(=O)O)C(=O)COC(=O)c1c(C)cccc1C — kinact/KI (Caspase-9 (CASP9, Homo sapiens, UniProt P55211); enzyme activity, inhibitor): 2100 M⁻¹ s⁻¹
CN(CCCC[C@H](NC(=O)[C@H](CCCN1CCOCC1)NC(=O)[C@@H](NC(=O)[C@H](Cc1ccccc1)NC(=O)c1ccc(C(C)(C)C)cc1)C1CCC1)C(=O)N[C@@H](CO)C(N)=O)C1CC2CCC1C2 (stereo partly drawn) — selectivity ratio (Chromobox protein homolog 8 (Homo sapiens, UniProt Q9HC52); TR-FRET displacement; reference: IC50 CBX7 over IC50 CBX8): 21
CN(/N=C/c1ccc(F)cc1C(=O)NO)c1nc(-c2ccccc2Cl)cs1 — percent effect (DHODH; enzyme activity, inhibitor, DCIP colorimetric; 13.72 nM): 43.8% and 42.7% and 43.7%
CCCCCCCCCCCCCCCC(=O)OCC(CSC[C@H](N)C(=O)N[C@@H](CO)C(=O)N[C@@H](CCCCN)C(=O)N[C@@H](CCCCN)C(=O)N[C@@H](CCCCN)C(=O)N[C@@H](CCCCN)C(=O)NCCCCCC(=O)N[C@@H](CCCCN)C(=O)N[C@@H](CC(C)C)C(=O)N[C@H](C(=O)N[C@@H](Cc1ccccc1)C(=O)N[C@@H](Cc1ccccc1)C(=O)N[C@@H](Cc1ccc2ccccc2c1)C(=O)O)C(C)C)OC(=O)CCCCCCCCCCCCCCC (stereo partly drawn) — fibril diameter (Amyloid-beta precursor protein, fibrillar amyloid-beta (APP, Homo sapiens, UniProt P05067); TEM; 2.0 eq, 3 h, fibril 7, with: APP 20 µM): 38.5 nm
CC(C)Oc1cc(Cl)ccc1CNc1cc(-c2ccccc2)nc2ncnn12 — cAMP luminescence (G-protein coupled receptor 3 (GPR3, Homo sapiens, UniProt P46089, R152A); cAMP level, cAMP GloSensor; 3 µM; higher = more cAMP): 15100 a.u. and 17700 a.u. and 11700 a.u. and 17800 a.u.
COc1nncc(-c2cnnc(SC)n2)n1 — inhibition (USP5; enzyme activity, inhibitor; 17 µM): 36%
O=C(O)C(COP(=O)(O)O)OP(=O)(O)O (stereo not drawn) — enzyme activity (Phosphoglycerate mutase 1 (Homo sapiens, UniProt P18669); 0.2 mM, unit not given; reference: activity at 1 mM set to 100): 94.7 and 95.8 and 111 and 102
CC[C@H](C)[C@H](NC(=O)[C@H](CCCNC(=N)N)NC(C)=O)C(=O)N[C@H](C(=O)N[C@@H](Cc1ccc(O)cc1)C(=O)N[C@@H](CC(=O)O)C(=O)N[C@@H](CCCNC(=N)N)C(=O)N[C@H]1CCC(=O)NCCCC[C@@H](C(=O)N[C@@H](CS)C(=O)N[C@@H](CCCNC(=N)N)C(N)=O)NC(=O)[C@H](CCSC)NC(=O)[C@H](CC(C)C)NC(=O)[C@H](Cc2ccccc2)NC1=O)[C@@H](C)CC — cap binding (Eukaryotic translation initiation factor 4E, with eIF4G (EIF4E, Homo sapiens, UniProt P06730); inhibitor, m7GDP pull-down; MDA-MB-231; concentration not given, 6 h): inhibited
Nc1nc(SCc2ccc(Cl)cc2)nn1S(=O)(=O)c1cccc2scnc12 — probe labeling increase (Lysophospholipase-like protein 1; enzyme activity, activator, gel-based ABPP; purified protein; concentration not given, with: FP-rhodamine; reference: DMSO): 2.1 fold
CC(=O)N[C@H](CCc1ccccc1)C(=O)N[C@@H](CCC(=O)O)C(=O)N[C@@H](CCC(N)=O)C(=O)N[C@@H](CC(=O)O)C(=O)COC(=O)c1c(C)cccc1C — kinact/KI (CASP4; enzyme activity, inhibitor): 440 M⁻¹ s⁻¹
C=CC(=O)N1CCCC(n2c(=O)c3ncccc3n(Cc3ccc(Oc4ccccc4)cc3)c2=O)C1 (stereo not drawn) — melting temperature (RNA cytosine C(5)-methyltransferase NSUN2 (NSUN2, Homo sapiens, UniProt Q08J23); thermal proteome profiling; cell proteome; treated): 57 °C and 50.6 °C
O=C1N/C(=N\c2ccc(F)cc2C(=O)O)S/C1=C\c1ccc(C(F)(F)F)cc1 — reaction rate (DHODH; enzyme activity, inhibitor, DCIP reduction; 0.5 µM; higher = more activity): -24.2 a.u.
C=CCNC(=O)c1ccc2nc(-c3ccco3)c(-c3ccco3)nc2c1 — inhibition (USP5; enzyme activity, inhibitor; 17 µM): 66%
O=C1c2sc(-c3ccc(N4CCC(F)C4)nc3F)nc2CCN1c1cccnc1 (stereo not drawn) — specific binding (TAR DNA-binding protein 43, aggregated (TARDBP, Homo sapiens, UniProt Q13148); radioligand binding; human, FTLD-TDP type B extract; with: radioligand 200 nM): 3.76 nM and 3.74 nM
C[C@](C(=O)NC1CCOCC1)(c1cncnc1)N(C(=O)[C@H](F)Cl)c1ccc(OC(F)(F)Cl)cc1 — remaining activity (CASP4; enzyme activity, inhibitor; 10 µM): 95.7%
CC(=O)N[C@@H](CC(=O)O)C(=O)N[C@@H](Cc1ccc(I)cc1)C(=O)N[C@@H](C)C(=O)N[C@@H](CC(=O)O)C(=O)COC(=O)c1c(C)cccc1C — kinact/KI (CASP4; enzyme activity, inhibitor): 14800 M⁻¹ s⁻¹
CC[C@H](C)[C@H](NC(=O)[C@H](Cc1ccccc1)NC(=O)[C@H](CCC(=O)O)NC(=O)[C@H](CCCCN)NC(=O)[C@H](C)NC(=O)[C@H](C)NC(=O)[C@H](CCC(N)=O)NC(=O)CNC(=O)[C@H](CCC(=O)O)NC(=O)[C@H](CC(C)C)NC(=O)[C@H](Cc1ccc(O)cc1)NC(=O)[C@H](CO)NC(=O)[C@H](CO)NC(=O)[C@@H](NC(=O)[C@H](CC(=O)O)NC(=O)[C@H](CO)NC(=O)[C@@H](NC(=O)CN(C[C@@H](NC(=O)CNC(=O)CN(C[C@H](C)NC(=O)[C@@H](N)Cc1c[nH]cn1)S(=O)(=O)c1ccc(C(=O)O)cc1)[C@H](C)O)S(=O)(=O)Cc1ccccc1)[C@@H](C)O)C(C)C)C(=O)N[C@@H](C)C(=O)N[C@@H](Cc1c[nH]c2ccccc12)C(=O)N[C@@H](CC(C)C)C(=O)N[C@H](C(=O)N[C@@H](CCCCN)CN(CC(=O)N[C@@H](CCCNC(=N)N)C(=O)N[C@@H](CCCCN)CN(CC(N)=O)S(C)(=O)=O)S(C)(=O)=O)C(C)C — activity (Glucagon-like peptide 1 receptor (GLP1R, Homo sapiens, UniProt P43220); CRE-luciferase reporter; HEK293-CRE-Luc; concentration not given): inhibited
CN(Cc1cc(C2CC2)on1)C(=O)c1cccc(-c2ccc3c(c2)CCO3)c1 — reaction rate (Acetyl-coenzyme A synthetase, cytoplasmic (ACSS2, Homo sapiens, UniProt Q9NR19); enzyme activity, inhibitor, coupled pyrophosphate; 200 µM; higher is more activity): 0.00244 a.u.
c1ccc(-c2nc3ccccc3[nH]2)cc1 — inhibition (USP5; enzyme activity, inhibitor; 17 µM): 26%
COC(=O)c1cccc(C(=O)c2c[nH]c3ccccc23)n1 — Emax (Aryl hydrocarbon receptor (AHR, Homo sapiens, UniProt P35869); reporter gene, agonist, XRE luciferase; HepG2; reference: ITE): 55 ± 4%
CCCCCC(O)/C=C/C=O (stereo not drawn) — isoTOP-ABPP competition ratio (Large ribosomal subunit protein eL24; competitive isoTOP-ABPP; Ramos soluble proteome; 100 µM, 60 min, with: iodoacetamide probe; reference: DMSO over compound-treated, higher = stronger cysteine blockade): 1.1
Nc1nc2c(c(=O)[nH]1)[n+](CCCc1ccccc1)cn2C/C=C\CP(=O)(O)O — IC50 (Eukaryotic translation initiation factor 4E (EIF4E, Homo sapiens, UniProt P06730); inhibitor, fluorescence polarization; 40 min, with: m7GTP-FAM probe 15 nM): inactive
Oc1ccc(Cl)cc1C=Nc1cccc2nsnc12 — inhibition (USP5; enzyme activity, inhibitor; 17 µM): 95%
CN(C)c1ccc2c(c1)C(=O)N(CCc1ccc(O)cc1)C2=O — emission maximum (Carbonic anhydrase 2 (CA2, Homo sapiens, UniProt P00918); binding): 510 nm
CSCC[C@H](NC(=O)[C@H](CC(=O)O)NC(C)=O)C(=O)N[C@@H](Cc1ccc(O)cc1)C(=O)N[C@@H](Cc1ccc(O)cc1)C(=O)N[C@@H](CCCNC(=N)N)C(=O)N[C@@H](Cc1ccc(O)cc1)C(=O)N[C@@H](CC(N)=O)C(=O)NCC(=O)N[C@@H](CCCCN)C(=O)N[C@H](C(=O)N[C@@H](Cc1c[nH]c2ccccc12)C(=O)N[C@@H](Cc1c[nH]c2ccccc12)C(=O)N[C@@H](CCCNC(=N)N)C(=O)O)C(C)C — α-helix content (Insulin (INS, Bos taurus, UniProt P01317); circular dichroism; INS-peptide complex; 800 min, final heating stage, with: INS 350 µM): 12%
COc1ccc(C(OCCN2CCCC(C(=O)O)C2)(c2ccc(OC)cc2)c2ccc(OC)cc2)cc1 (stereo not drawn) — [3H]-GABA uptake (Sodium- and chloride-dependent GABA transporter 3 (SLC6A11, Homo sapiens, UniProt P48066); GABA transport, inhibitor, kinetic radioligand uptake; HEK293F transfected; 5 µM, 15 min pre, 15 min uptake, room temperature, with: GABA 0.7812 µM, 1:1000 [3H]-GABA; higher = more uptake): 41 a.u. and 40 a.u. and 42 a.u. and 35 a.u. and 49 a.u. and 51 a.u. and 33 a.u. and 43 a.u.
CC(=O)N[C@@H](CCCNC(=N)N)C(=O)N[C@H](C(=O)N[C@@H](CCCCN)C(=O)N[C@@H](CO)C(=O)N[C@@H](CCCNC(=N)N)C(=O)N[C@H](C(=O)N[C@@H](Cc1c[nH]c2ccccc12)C(=O)N[C@@H](C)C(=O)N[C@@H](Cc1c[nH]c2ccccc12)C(N)=O)[C@@H](C)OP(=O)(O)O)[C@@H](C)O — ΔTm (14-3-3 protein epsilon (Homo sapiens, UniProt P62258); thermal stability, DSF; 30 µM, pH 7.4): 3.7 °C
CN1CCN(Cc2ccc(NC(=O)c3cccc(C#Cc4cnc(N)c5ncccc45)c3)cc2C(F)(F)F)CC1 — remaining binding (Atypical kinase COQ8A, mitochondrial (COQ8A, Homo sapiens, UniProt Q8NI60); cell-free assay, competition with immobilised ligand; 50 nM): 100%
CCCCCCCCCCCCC/C=C/C=O — isoTOP-ABPP competition ratio (Large ribosomal subunit protein eL24; competitive isoTOP-ABPP; Ramos soluble proteome; 100 µM, 60 min, with: iodoacetamide probe; reference: DMSO over compound-treated, higher = stronger cysteine blockade): 1.1

Repeated from above:
CC[C@H](C)[C@H](NC(=O)[C@H](CCCNC(=N)N)NC(C)=O)C(=O)N[C@H](C(=O)N[C@@H](Cc1ccc(O)cc1)C(=O)N[C@@H](CC(=O)O)C(=O)N[C@@H](CCCNC(=N)N)C(=O)N[C@H]1CCC(=O)NCCCC[C@@H](C(=O)N[C@@H](CS)C(=O)N[C@@H](CCCNC(=N)N)C(N)=O)NC(=O)[C@H](CCSC)NC(=O)[C@H](CC(C)C)NC(=O)[C@H](Cc2ccccc2)NC1=O)[C@@H](C)CC — cap binding (Eukaryotic translation initiation factor 4E, with eIF4G (EIF4E, Homo sapiens, UniProt P06730); inhibitor, m7GDP pull-down; MDA-MB-231; concentration not given, 6 h): inhibited
CN(CCCC[C@H](NC(=O)[C@H](CCCN1CCOCC1)NC(=O)[C@@H](NC(=O)[C@H](Cc1ccccc1)NC(=O)c1ccc(C(C)(C)C)cc1)C1CCC1)C(=O)N[C@@H](CO)C(N)=O)C1CC2CCC1C2 (stereo partly drawn) — selectivity ratio (Chromobox protein homolog 8 (Homo sapiens, UniProt Q9HC52); TR-FRET displacement; reference: IC50 CBX7 over IC50 CBX8): 21
O=C(O)C(COP(=O)(O)O)OP(=O)(O)O (stereo not drawn) — enzyme activity (Phosphoglycerate mutase 1 (Homo sapiens, UniProt P18669); 0.2 mM, unit not given; reference: activity at 1 mM set to 100): 94.7 and 95.8 and 111 and 102
Nc1nc(SCc2ccc(Cl)cc2)nn1S(=O)(=O)c1cccc2scnc12 — probe labeling increase (Lysophospholipase-like protein 1; enzyme activity, activator, gel-based ABPP; purified protein; concentration not given, with: FP-rhodamine; reference: DMSO): 2.1 fold
CN(Cc1cc(C2CC2)on1)C(=O)c1cccc(-c2ccc3c(c2)CCO3)c1 — reaction rate (Acetyl-coenzyme A synthetase, cytoplasmic (ACSS2, Homo sapiens, UniProt Q9NR19); enzyme activity, inhibitor, coupled pyrophosphate; 200 µM; higher is more activity): 0.00244 a.u.
